Experimental data of several laboratories.
Every numbered part comes from another study and shows a few of its results, in no order.

Series 1 — method: protein binding microarray; form: double-stranded DNA, one strand shown; medium: in vitro; tested at: not given; reference: not given; reading: higher = stronger binding; endpoint: E-score
Target: Histone acetyltransferase KAT6A, both winged helices, GST fusion (KAT6A, Homo sapiens, UniProt Q92794, residues 1-181)
Setting: 8-mer, flanks averaged, mean of 2 arrays, mostly near background
Residues (chain): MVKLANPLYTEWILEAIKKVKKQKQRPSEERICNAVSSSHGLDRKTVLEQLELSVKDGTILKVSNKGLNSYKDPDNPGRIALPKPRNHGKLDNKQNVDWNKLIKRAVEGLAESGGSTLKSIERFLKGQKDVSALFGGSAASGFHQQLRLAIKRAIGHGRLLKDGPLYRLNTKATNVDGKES
Oligonucleotide = GCGCATTA; result = 0.21
Oligonucleotide = TACTAGGA; result = -0.321
Oligonucleotide = CTCCTCGA; result = -0.221
Oligonucleotide = GCGGTCCA; result = 0.179
Oligonucleotide = CAATGGGG; result = -0.101

Series 2 — method: aptamer microarray, sandwich; form: DNA with 2'F-ANA; medium: in vitro; tested at: 200 nM; together with: Cy3 exosite-II aptamer, 400 nM; reading: higher = stronger binding; endpoint: mean fluorescence intensity; oligonucleotide: GGTTGGTGTGGTTGG
Target: Prothrombin, mature alpha-thrombin (F2, Homo sapiens, UniProt P00734)
Setting: whole 15-mer aptamer, many near background
Modification = 2'F-ANA at 1 2 3 4 7 9 10 12; result = 75.2 a.u.
Modification = 2'F-ANA at 6 8 9 10 12 15; result = 179 a.u.
Modification = 2'F-ANA at 3 4 6 7 9 10; result = 288 a.u.
Modification = 2'F-ANA at 1 2 3 5 7 9 10 12 13; result = 61.2 a.u.
Modification = 2'F-ANA at 1 4 6 7 8 9 11 14 15; result = 110 a.u.

Series 3 — method: RNA Bind-n-Seq; form: RNA; medium: in vitro; tested at: 1 µM; setting: whole 134-nt RNA, ends assumed; together with: 150 mM KCl; reference: input library; reading: higher = stronger binding; endpoint: log2 enrichment
Target: Ras GTPase-activating protein-binding protein 1, RRM domain (G3BP1, Homo sapiens, UniProt Q13283)
UniProt Q13283, sequence (whole entry, looked up): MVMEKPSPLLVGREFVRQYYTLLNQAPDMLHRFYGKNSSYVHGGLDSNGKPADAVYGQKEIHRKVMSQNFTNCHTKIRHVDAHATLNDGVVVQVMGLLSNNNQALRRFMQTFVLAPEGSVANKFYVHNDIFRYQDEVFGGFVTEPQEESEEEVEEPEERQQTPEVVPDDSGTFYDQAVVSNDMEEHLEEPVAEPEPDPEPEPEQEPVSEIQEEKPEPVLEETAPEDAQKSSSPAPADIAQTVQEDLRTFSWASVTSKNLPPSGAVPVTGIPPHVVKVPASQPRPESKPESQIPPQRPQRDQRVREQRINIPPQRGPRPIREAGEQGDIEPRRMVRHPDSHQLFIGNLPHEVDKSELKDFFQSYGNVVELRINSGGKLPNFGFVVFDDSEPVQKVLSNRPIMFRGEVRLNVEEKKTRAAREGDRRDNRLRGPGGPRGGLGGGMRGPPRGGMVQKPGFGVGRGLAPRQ
Oligonucleotide = GGGAGUUCUACAGUCCGACGAUCCAAGUCCUGUGCUACACAUCGUAUGUACCGAAUCGGUUUUGGGUUUUGGUUUUGGAAAGUAUUAUGUUACGCCGUUCGGAUCUGCACUUCUGGAAUUCUCGGGUGUCAAGG; result = -0.221
Oligonucleotide = GGGAGUUCUACAGUCCGACGAUCCUCAAGUCCUGUGCUACACAUCGUAUGUACCGAAUCGGAAAAAGGAGGUUUGGAAAGUAUUAUGUUACGCCGUUCGGAUCUGCACUUCCAUGGAAUUCUCGGGUGUCAAGG; result = -0.116
Oligonucleotide = GGGAGUUCUACAGUCCGACGAUCCUGUGCUACACAUCGUAUGUACCGAAUCGGGGCCCCCCCGGCCCCCCCGGCCCCCCCGGGGAAAGUAUUAUGUUACGCCGUUCGGAUCUGUGGAAUUCUCGGGUGUCAAGG; result = -0.724

Further values, each from its own experiment
Molecule = PhoQ, residues 284 288 289 292 302 303 SLANKL; target = PhoP, residues 12 14 15 18 19 DLLYY (Escherichia coli, UniProt P23836); test = Sort-seq, refers to: YFP reporter; test system = E. coli; conditions = PhoQ-PhoP variant library, together with: 10 µM Mg2+; how to read = reference: high Mg2+ state, higher = stronger signaling; endpoint = fold induction; result = 1.59

Excerpt of the above (series 3):
Oligonucleotide = GGGAGUUCUACAGUCCGACGAUCCUCAAGUCCUGUGCUACACAUCGUAUGUACCGAAUCGGAAAAAGGAGGUUUGGAAAGUAUUAUGUUACGCCGUUCGGAUCUGCACUUCCAUGGAAUUCUCGGGUGUCAAGG; result = -0.116
Oligonucleotide = GGGAGUUCUACAGUCCGACGAUCCUGUGCUACACAUCGUAUGUACCGAAUCGGGGCCCCCCCGGCCCCCCCGGCCCCCCCGGGGAAAGUAUUAUGUUACGCCGUUCGGAUCUGUGGAAUUCUCGGGUGUCAAGG; result = -0.724
